{"data": "Assay results of several laboratories", "note": "Parts stem from different laboratories: compare values within a part only.", "UniProt Q9NSY1, sequence (whole entry, looked up)": "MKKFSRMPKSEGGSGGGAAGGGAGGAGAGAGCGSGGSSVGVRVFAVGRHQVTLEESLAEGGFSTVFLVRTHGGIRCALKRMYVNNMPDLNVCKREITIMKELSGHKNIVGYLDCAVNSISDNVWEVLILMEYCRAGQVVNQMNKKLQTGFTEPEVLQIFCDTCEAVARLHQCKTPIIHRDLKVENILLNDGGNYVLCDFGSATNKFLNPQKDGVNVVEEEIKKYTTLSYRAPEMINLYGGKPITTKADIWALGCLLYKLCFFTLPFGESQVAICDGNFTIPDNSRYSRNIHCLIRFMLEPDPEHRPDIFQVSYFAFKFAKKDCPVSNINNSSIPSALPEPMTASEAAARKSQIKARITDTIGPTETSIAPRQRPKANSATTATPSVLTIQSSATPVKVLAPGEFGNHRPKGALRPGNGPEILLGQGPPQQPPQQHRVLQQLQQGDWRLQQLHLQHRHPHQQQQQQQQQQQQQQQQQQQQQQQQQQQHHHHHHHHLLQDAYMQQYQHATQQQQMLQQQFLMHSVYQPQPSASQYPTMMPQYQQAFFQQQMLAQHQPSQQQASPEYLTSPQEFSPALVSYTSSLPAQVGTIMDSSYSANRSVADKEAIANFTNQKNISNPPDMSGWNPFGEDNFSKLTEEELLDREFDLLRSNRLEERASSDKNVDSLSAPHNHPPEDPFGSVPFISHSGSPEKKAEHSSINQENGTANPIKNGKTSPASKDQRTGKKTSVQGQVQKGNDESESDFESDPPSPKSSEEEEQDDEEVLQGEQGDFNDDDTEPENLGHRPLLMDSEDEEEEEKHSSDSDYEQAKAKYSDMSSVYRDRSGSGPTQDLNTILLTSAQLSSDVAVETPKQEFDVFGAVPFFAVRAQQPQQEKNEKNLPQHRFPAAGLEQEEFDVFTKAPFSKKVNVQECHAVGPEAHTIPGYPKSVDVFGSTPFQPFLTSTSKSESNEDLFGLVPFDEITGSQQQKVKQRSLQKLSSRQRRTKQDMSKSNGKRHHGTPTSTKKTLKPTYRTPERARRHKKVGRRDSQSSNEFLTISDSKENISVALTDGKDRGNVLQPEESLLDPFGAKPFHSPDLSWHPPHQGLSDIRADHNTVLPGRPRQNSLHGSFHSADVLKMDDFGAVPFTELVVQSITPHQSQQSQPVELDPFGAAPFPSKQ", "UniProt Q15375, sequence (whole entry, looked up)": "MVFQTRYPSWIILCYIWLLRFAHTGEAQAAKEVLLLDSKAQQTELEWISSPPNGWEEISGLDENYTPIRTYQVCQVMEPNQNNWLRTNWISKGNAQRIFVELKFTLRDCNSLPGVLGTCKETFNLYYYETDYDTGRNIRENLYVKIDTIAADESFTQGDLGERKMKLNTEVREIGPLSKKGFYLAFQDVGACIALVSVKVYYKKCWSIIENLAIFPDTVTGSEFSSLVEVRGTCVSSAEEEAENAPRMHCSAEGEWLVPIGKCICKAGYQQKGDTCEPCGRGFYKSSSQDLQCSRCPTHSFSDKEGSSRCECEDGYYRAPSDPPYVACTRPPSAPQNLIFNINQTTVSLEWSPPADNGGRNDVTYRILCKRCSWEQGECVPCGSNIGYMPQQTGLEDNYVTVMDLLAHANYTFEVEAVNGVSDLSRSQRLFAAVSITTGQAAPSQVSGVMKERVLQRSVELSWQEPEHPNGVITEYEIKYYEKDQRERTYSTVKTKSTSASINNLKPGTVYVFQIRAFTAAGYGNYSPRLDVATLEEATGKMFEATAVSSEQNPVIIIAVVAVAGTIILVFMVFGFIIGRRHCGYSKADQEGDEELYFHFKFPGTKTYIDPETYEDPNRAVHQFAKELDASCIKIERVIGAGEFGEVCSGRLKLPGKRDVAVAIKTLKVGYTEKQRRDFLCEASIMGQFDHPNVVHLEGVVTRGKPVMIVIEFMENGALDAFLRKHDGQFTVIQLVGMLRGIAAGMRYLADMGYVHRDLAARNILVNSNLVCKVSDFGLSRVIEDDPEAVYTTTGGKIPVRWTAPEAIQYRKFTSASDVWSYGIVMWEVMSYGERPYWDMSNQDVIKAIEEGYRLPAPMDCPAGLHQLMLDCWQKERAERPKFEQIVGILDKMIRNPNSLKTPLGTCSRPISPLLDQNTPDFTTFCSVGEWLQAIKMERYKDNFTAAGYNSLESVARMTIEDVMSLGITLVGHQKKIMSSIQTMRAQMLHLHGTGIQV", "UniProt Q9Y5S2, sequence (whole entry, looked up)": "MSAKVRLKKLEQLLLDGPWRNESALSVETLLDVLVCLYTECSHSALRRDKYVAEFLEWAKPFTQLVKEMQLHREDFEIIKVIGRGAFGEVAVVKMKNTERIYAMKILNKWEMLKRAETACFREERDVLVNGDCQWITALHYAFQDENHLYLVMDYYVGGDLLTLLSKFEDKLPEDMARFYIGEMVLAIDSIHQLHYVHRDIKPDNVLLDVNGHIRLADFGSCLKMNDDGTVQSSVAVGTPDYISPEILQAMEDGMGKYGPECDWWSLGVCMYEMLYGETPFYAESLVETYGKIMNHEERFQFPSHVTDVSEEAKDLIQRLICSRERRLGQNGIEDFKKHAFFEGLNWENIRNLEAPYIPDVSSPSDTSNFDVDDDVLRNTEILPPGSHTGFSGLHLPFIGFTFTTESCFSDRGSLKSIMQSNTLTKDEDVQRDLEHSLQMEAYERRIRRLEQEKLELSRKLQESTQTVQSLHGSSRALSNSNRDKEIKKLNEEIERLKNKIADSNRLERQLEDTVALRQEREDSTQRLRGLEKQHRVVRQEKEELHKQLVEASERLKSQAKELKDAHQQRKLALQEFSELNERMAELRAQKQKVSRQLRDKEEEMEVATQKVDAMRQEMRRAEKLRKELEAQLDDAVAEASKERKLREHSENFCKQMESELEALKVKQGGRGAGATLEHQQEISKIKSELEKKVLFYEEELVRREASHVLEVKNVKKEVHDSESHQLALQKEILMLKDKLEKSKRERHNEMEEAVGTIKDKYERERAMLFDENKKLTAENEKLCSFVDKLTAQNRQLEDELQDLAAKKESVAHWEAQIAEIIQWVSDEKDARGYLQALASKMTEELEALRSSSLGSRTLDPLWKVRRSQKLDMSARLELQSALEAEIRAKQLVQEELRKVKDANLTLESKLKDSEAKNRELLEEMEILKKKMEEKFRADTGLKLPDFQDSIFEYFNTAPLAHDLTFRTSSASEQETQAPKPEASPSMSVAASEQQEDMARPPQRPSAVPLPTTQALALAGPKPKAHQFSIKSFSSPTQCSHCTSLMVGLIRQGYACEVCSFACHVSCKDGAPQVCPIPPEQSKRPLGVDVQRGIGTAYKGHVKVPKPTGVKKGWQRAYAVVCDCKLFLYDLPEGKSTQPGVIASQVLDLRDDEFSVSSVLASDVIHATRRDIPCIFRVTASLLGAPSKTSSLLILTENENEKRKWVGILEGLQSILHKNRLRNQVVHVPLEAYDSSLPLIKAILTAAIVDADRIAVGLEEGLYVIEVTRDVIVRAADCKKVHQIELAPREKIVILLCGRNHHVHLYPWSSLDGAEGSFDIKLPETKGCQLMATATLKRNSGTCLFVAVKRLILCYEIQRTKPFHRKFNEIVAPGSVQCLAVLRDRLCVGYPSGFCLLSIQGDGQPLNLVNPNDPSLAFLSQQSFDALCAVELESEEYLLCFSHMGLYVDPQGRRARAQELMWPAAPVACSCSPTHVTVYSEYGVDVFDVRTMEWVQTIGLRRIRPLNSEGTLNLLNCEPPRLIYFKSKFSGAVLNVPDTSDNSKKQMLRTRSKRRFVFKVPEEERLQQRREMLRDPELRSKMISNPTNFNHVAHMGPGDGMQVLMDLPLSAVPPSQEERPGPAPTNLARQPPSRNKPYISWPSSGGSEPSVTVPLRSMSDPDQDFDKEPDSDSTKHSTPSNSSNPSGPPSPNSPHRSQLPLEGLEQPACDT"}
{"data": "Sample 1", "target": "Inhibitor of nuclear factor kappa-B kinase subunit alpha (CHUK, Homo sapiens, UniProt O15111)", "read-out": "enzyme activity", "mode": "inhibitor", "concentration": "0.5 µM", "reference": "control", "Target sequence (O15111 1-745)": "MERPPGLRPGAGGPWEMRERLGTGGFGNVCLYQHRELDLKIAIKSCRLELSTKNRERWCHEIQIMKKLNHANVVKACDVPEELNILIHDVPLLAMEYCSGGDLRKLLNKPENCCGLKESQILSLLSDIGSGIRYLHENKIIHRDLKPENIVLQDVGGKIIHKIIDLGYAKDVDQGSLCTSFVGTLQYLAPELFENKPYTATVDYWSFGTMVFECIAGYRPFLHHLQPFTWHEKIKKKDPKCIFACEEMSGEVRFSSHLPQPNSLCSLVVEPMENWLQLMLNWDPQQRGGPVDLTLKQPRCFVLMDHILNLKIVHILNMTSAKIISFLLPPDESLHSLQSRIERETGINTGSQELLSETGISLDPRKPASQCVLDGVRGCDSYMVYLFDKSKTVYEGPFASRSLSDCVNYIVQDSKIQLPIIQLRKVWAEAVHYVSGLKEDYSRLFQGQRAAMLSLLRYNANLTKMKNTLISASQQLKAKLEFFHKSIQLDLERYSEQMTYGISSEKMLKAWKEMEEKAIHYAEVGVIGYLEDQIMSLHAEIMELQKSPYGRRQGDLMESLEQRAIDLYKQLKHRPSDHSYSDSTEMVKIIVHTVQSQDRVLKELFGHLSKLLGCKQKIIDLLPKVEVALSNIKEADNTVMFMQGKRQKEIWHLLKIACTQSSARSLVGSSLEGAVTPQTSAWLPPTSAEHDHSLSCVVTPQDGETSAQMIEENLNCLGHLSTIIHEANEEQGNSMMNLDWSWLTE"}
{"Structure (SMILES)": "COc1cc2nccc(Oc3ccc(NC(=S)NC(=O)c4ccccc4C)cc3)c2cc1OC", "remaining activity": "98.3%"}
{"Structure (SMILES)": "COc1ccc(OC)c2c(=S)c3ccccc3[nH]c12", "remaining activity": "94.3%"}
{"Structure (SMILES)": "Nc1[nH]nc2nc3ccccc3nc12", "remaining activity": "85.9%"}
{"Structure (SMILES)": "Cc1cccc(-c2[nH]c(C(C)(C)C)nc2-c2ccc3c(c2)OCO3)n1", "remaining activity": "108%"}
{"Structure (SMILES)": "COc1cc2ncnc(Nc3ccc(Oc4ccccc4)cc3)c2cc1OC", "remaining activity": "101%"}
{"Structure (SMILES)": "O=C(Nc1cccc(Nc2cc(Nc3cccc(C(F)(F)F)c3)ncn2)c1)C1CC1", "remaining activity": "95.6%"}
{"Structure (SMILES)": "O=c1c2ccccc2[nH]c(=S)n1CCN1CCC(=C(c2ccc(F)cc2)c2ccc(F)cc2)CC1", "remaining activity": "95%"}
{"Structure (SMILES)": "Oc1ccc(-c2nc(-c3ccncc3)c(-c3ccc(F)cc3)[nH]2)cc1", "remaining activity": "107%"}
{"Structure (SMILES)": "COc1cc2ncnc(Nc3ccc(F)c(Cl)c3)c2cc1OCCCN1CCOCC1", "remaining activity": "94.9%"}
{"Structure (SMILES)": "O=C1NC(=O)C(c2cn(CCCn3ccnc3)c3ccccc23)=C1Nc1ccccc1", "remaining activity": "105%"}
{"Structure (SMILES)": "Cc1nc(-c2ccccc2)c(-c2ccncc2)o1", "remaining activity": "105%"}
{"Structure (SMILES)": "O=C(CCCc1ccc(-c2ccccc2F)cc1)Nc1ccc(O)cc1", "remaining activity": "97.3%"}
{"Structure (SMILES)": "Cn1sc(=O)n(Cc2ccccc2)c1=O", "remaining activity": "96.2%"}
{"data": "Sample 2", "target": "Eukaryotic initiation factor 4A-I (EIF4A1, Homo sapiens, UniProt P60842, residues 1-406, full length assumed)", "technique": "RNA Bind-n-Seq", "form": "RNA", "matrix": "in vitro", "concentration": "90 pmol", "setting": "4-mer, random 30-nt RNA, single round", "with": "3 µM iPr-DMDA-PatA, 2 mM ADP, 2 mM phosphate", "reference": "input library", "direction": "higher = stronger binding", "UniProt P60842, sequence (whole entry, looked up)": "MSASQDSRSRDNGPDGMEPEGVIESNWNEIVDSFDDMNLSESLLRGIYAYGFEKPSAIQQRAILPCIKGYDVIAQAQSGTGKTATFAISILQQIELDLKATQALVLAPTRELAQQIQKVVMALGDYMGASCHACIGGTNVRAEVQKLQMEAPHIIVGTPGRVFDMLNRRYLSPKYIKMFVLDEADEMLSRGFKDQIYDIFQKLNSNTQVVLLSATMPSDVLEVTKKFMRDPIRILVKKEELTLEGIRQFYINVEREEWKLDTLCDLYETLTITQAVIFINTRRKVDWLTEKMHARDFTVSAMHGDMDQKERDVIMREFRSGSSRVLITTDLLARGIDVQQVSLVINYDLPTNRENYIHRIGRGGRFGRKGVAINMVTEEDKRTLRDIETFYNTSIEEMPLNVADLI"}
{"Strand": "UCUU", "4-mer enrichment": "1.01 fold"}
{"Strand": "GUAA", "4-mer enrichment": "1.18 fold"}
{"Strand": "AGGG", "4-mer enrichment": "0.719 fold"}
{"Strand": "ACAC", "4-mer enrichment": "1.15 fold"}
{"Strand": "UAGU", "4-mer enrichment": "1.09 fold"}
{"Strand": "GCGC", "4-mer enrichment": "0.652 fold"}
{"Strand": "CUCG", "4-mer enrichment": "0.872 fold"}
{"Strand": "GAAU", "4-mer enrichment": "1.32 fold"}
{"data": "Sample 3", "target": "RNA binding protein fox-1 homolog 2, RRM domain, GST-SBP tag (RBFOX2, Homo sapiens, UniProt O43251-10, residues 100-194)", "technique": "RNA Bind-n-Seq", "form": "RNA", "matrix": "in vitro", "concentration": "365 nM", "setting": "natural RNA segment, single round, ends assumed", "reference": "no-protein control", "direction": "higher = stronger binding", "shared flanks, not repeated": "GGGAGUUCUACAGUCCGACGAUC … UGGAAUUCUCGGGUGCCAA"}
{"Strand": "AGUUCCAAAGCACAUAAGCUAGAAGAAGAAAUAUUUCUAGGAGCACUACCAUCUGUUUUCAACAUGAAAUGCCACACACAUAGAACUCCAACAUCAAUUUCAUUGCACAG", "RBNS enrichment (R)": 0.843}
{"Strand": "AGAAUCCACUUCCACAGGUGGCUGCCCUUGUAAGGAAGAAUGCAUCCCUAAAUGUGGCCACCAGAGAGUUCCAGUGGGCAGAUGUCUGUGGCUGCCCUUCUCAUUUAAGG", "RBNS enrichment (R)": 1.39}
{"Strand": "UGGUUGGAUUAGGCACCCUUCAUGCCUGCUACCAGGAACUCUCAGAUCUGCUUGCCCCAAACAAAUGGUGUAAGCUGAGGGAAACUCCAACCCCACACUUGAUGCUCUGU", "RBNS enrichment (R)": 1.93}
{"Strand": "GUAUGUAUGUUCUGUACAUACUUAUCGGAGCGCGCCAGUAAGUAUCAGGCAUAUAUAUCUGUCUGUUAGCAAUGAUUAUUACAUCAUCAGAUCAGCAUGUGCUAUACUCC", "RBNS enrichment (R)": 1.26}
{"Strand": "UUUCUGCUGAUAUACUCACCUUAGAACUGCUCAGAACCCUGGUGCUUUAUUUUUGUUUUAAUCUUUUGUUGCCAGUGAUGAUUUUCCUAUUCUGCAAAUAGUGUAUUUCC", "RBNS enrichment (R)": 0.908}
{"Strand": "GUAAUCUGGUAUGCCAUAGGAUGUCAGAUAAUACCACUGGUUAAAAUAAAGCCUAGUUUUCAAAUUCAGUUGGUUUCUCAGGUUUAUUCUGUUCCUCUUCUUGGUUGUGG", "RBNS enrichment (R)": 0.552}
{"Strand": "AGCCUGAAUGGACGUAGCACUGUCAUGUGGCAUUUGGAAAAUCUUUAAUUAUCCUAAUGUUAUUUCACUUGCCCUUAUGCUUUAUUUUAGAGUCCCAGGGACAACUGGAU", "RBNS enrichment (R)": 0.426}
{"Strand": "ACUUCUUGAUUGUCGAUCUCUGUCACAUCCGAUGAUUGUUUUGGUUUCUAUUCCCUUUCUAACUGCCCAUCGGGCUCAGAACCCCAAUAAUCCCUUCCUUUCACUAUCUU", "RBNS enrichment (R)": 0.393}
{"data": "Sample 4", "SMILES": "CS(=O)(=O)NCC[C@H](NC(=O)c1cncc2c1cnn2-c1ccc(F)cc1)c1ccnc(S(C)(=O)=O)c1", "read-out": "cell-free assay", "technique": "competition with immobilised ligand", "concentration": "1 µM"}
{"target": "EPHA7 (Homo sapiens, UniProt Q15375)", "remaining binding [%]": 82}
{"target": "MAP2K1 (Homo sapiens, UniProt Q02750)", "remaining binding [%]": 100}
{"target": "CHUK (Homo sapiens, UniProt O15111)", "remaining binding [%]": 100}
{"target": "CDC42BPB (Homo sapiens, UniProt Q9Y5S2)", "remaining binding [%]": 95}
{"target": "BMP2K (Homo sapiens, UniProt Q9NSY1)", "remaining binding [%]": 92}
{"note": "Excerpt of the above (sample 3):"}
{"Strand": "GUAAUCUGGUAUGCCAUAGGAUGUCAGAUAAUACCACUGGUUAAAAUAAAGCCUAGUUUUCAAAUUCAGUUGGUUUCUCAGGUUUAUUCUGUUCCUCUUCUUGGUUGUGG", "RBNS enrichment (R)": 0.552}
{"Strand": "ACUUCUUGAUUGUCGAUCUCUGUCACAUCCGAUGAUUGUUUUGGUUUCUAUUCCCUUUCUAACUGCCCAUCGGGCUCAGAACCCCAAUAAUCCCUUCCUUUCACUAUCUU", "RBNS enrichment (R)": 0.393}
{"Strand": "AGUUCCAAAGCACAUAAGCUAGAAGAAGAAAUAUUUCUAGGAGCACUACCAUCUGUUUUCAACAUGAAAUGCCACACACAUAGAACUCCAACAUCAAUUUCAUUGCACAG", "RBNS enrichment (R)": 0.843}
{"Strand": "UUUCUGCUGAUAUACUCACCUUAGAACUGCUCAGAACCCUGGUGCUUUAUUUUUGUUUUAAUCUUUUGUUGCCAGUGAUGAUUUUCCUAUUCUGCAAAUAGUGUAUUUCC", "RBNS enrichment (R)": 0.908}
{"Strand": "AGCCUGAAUGGACGUAGCACUGUCAUGUGGCAUUUGGAAAAUCUUUAAUUAUCCUAAUGUUAUUUCACUUGCCCUUAUGCUUUAUUUUAGAGUCCCAGGGACAACUGGAU", "RBNS enrichment (R)": 0.426}
